Measured values collected from several papers.
Every numbered part comes from another study and shows a few of its results, in no order. Positions count from the first letter of the parent shown.

Study 1
Target: Sal-like protein 4, full length isoform A (SALL4, Homo sapiens, UniProt Q9UJQ4, residues 1-1053)
Sequence of UniProt Q9UJQ4 (whole entry, looked up): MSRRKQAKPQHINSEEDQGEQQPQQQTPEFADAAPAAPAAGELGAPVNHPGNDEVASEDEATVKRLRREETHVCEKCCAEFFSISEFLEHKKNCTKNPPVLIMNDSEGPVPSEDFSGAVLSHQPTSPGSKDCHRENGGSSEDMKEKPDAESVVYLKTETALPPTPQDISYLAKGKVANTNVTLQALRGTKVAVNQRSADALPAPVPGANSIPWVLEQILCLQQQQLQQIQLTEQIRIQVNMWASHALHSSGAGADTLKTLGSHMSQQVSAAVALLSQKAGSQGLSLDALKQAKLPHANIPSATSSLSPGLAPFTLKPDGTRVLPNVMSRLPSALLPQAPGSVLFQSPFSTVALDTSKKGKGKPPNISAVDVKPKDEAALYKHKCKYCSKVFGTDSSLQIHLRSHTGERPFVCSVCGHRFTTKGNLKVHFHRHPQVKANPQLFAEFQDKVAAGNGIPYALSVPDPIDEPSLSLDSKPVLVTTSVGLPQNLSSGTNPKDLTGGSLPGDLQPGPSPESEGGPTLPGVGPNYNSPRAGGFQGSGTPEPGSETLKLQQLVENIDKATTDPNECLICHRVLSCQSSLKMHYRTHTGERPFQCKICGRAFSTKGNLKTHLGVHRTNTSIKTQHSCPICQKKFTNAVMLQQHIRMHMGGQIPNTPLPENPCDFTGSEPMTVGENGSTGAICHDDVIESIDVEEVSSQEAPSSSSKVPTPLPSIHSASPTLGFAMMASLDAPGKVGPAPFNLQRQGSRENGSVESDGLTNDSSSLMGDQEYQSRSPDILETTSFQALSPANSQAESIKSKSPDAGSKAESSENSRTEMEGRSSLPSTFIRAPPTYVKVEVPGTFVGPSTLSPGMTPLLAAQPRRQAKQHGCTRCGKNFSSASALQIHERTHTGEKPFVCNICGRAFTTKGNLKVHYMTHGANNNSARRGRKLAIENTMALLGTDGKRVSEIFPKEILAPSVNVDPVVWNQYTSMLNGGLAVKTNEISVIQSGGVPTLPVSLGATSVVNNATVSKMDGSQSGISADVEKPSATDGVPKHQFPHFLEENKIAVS
Method: universal PBM
Form: double-stranded DNA, one strand shown
Sample: in vitro
Tested at: 600 nM
Notes: 8-mer, flanks averaged, mean of replicates
Direction: higher = stronger binding
| Strand | E-score |
| --- | --- |
| GCACGCTA | -0.157 |
| CTAAACCA | 0.0717 |
| ATAGGGAC | 0.0476 |
| AACTGTGT | 0.0544 |
| CCGCGACC | -0.368 |
| GATACACC | 0.081 |
| CATAGCGG | -0.159 |
| CTTGCCTC | -0.142 |
| CGACAGCC | -0.0973 |
| GCCCGGCA | -0.41 |
| AGGCTAAG | -0.208 |
| ACAGACAA | 0.263 |
| ACGGTCGA | -0.111 |
| TAAACGAA | 0.179 |

Study 2
Target: CCNB1, cyclin fold, Cln2 fusion (human)
Method: yeast growth competition, sequencing
Sample: yeast
Notes: weak parent motif
Reference: not given
Direction: higher = stronger binding
Starting sequence: SLBP docking peptide (human); ARYKRKLLINDFG
| Variant | normalised enrichment score |
| --- | --- |
| AKYKRKLLINDFG [R2K] | 0.936 |
| ARYKRKMLINDFG [L7M] | 0.989 |
| ARYKRKLLMNDFG [I9M] | 0.849 |
| ARYKRWLLINDFG [K6W] | 0.59 |
| ARYKRKLLINDFM [G13M] | 1.03 |
| ARYKRKLLINDFI [G13I] | 0.725 |
| ARYKRKLLINDFR [G13R] | 0.74 |

Study 3
Target: ABI1, truncated, D143A, DHFR fusion (Arabidopsis thaliana)
Method: DHFR PCA, deep sequencing
Sample: yeast
Notes: methotrexate growth selection, single substitutions
Together with: (+)-ABA 4.8 µM
Reference: wild-type fitted maximum
Direction: higher = stronger binding
Starting sequence: PYL1, truncated, DHFR fusion (Arabidopsis thaliana); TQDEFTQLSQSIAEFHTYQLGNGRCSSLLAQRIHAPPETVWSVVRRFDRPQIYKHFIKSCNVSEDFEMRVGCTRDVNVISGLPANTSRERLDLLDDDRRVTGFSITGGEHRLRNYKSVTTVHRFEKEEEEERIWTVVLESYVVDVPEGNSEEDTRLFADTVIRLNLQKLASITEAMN; partner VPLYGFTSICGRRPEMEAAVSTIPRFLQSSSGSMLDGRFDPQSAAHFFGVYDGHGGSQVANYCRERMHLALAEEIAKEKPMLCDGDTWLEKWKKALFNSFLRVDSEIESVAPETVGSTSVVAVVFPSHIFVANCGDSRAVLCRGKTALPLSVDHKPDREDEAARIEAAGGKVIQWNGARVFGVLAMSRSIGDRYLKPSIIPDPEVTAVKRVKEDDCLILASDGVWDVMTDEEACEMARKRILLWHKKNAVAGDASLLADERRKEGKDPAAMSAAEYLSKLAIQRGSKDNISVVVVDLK
| Variant | relative binding score [%] |
| --- | --- |
| S171M | 77.3 |
| R99M | 94.9 |
| T86R | 57.1 |
| V145N | 10 |
| G107C | 6.73 |
| T39D | 61.1 |
| E127D | 78.4 |

Further values, each from its own experiment
| Substance | target | assay | system | conditions | how to read | measurement | result |
| --- | --- | --- | --- | --- | --- | --- | --- |
| PhoQ, residues 284 288 289 292 302 303 TASMAF | PhoP, residues 12 14 15 18 19 LHSVQ (Escherichia coli, UniProt P23836) | Sort-seq, measured: YFP reporter | E. coli | PhoQ-PhoP variant library, together with: 10 µM Mg2+ | reference: high Mg2+ state, higher = stronger signaling | fold induction | 10 |

Excerpt of the above (study 2):
| Variant | normalised enrichment score |
| --- | --- |
| AKYKRKLLINDFG [R2K] | 0.936 |
| ARYKRKLLINDFM [G13M] | 1.03 |
| ARYKRKLLINDFR [G13R] | 0.74 |
